Experimental data from different studies.
Lines come from different studies, so protocols differ. Several values in a cell are separate wells, animals, samples, runs or records. ± marks the error that the study gave.
Chain of UniProt P41968 (whole entry, looked up): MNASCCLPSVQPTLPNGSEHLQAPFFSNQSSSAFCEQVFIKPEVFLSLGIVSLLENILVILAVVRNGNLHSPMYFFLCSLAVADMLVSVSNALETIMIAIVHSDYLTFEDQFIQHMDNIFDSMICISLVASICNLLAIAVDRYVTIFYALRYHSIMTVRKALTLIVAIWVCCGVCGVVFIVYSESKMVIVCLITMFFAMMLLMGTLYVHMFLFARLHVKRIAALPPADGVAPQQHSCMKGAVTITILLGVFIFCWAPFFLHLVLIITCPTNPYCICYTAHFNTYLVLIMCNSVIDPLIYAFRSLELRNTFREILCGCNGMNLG
Chain of UniProt Q16539 (whole entry, looked up): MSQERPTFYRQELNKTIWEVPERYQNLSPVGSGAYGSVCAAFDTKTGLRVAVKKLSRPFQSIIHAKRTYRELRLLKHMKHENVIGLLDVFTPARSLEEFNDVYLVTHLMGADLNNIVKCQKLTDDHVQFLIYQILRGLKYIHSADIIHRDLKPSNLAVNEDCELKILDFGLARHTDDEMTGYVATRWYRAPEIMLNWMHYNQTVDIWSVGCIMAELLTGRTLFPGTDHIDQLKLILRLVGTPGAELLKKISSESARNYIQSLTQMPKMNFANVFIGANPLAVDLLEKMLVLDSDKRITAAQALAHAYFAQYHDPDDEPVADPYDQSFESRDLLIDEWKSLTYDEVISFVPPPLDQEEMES
Chain of UniProt P61073 (whole entry, looked up): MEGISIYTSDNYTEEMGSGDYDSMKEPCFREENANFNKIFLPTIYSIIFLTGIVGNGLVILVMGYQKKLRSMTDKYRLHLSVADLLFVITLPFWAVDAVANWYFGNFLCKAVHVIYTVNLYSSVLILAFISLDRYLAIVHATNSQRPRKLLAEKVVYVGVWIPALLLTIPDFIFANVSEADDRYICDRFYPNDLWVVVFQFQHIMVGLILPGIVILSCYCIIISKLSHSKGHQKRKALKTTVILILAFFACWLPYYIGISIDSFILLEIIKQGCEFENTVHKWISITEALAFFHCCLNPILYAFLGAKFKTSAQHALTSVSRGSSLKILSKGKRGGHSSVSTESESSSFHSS
Chain of UniProt Q8NFV4 (whole entry, looked up): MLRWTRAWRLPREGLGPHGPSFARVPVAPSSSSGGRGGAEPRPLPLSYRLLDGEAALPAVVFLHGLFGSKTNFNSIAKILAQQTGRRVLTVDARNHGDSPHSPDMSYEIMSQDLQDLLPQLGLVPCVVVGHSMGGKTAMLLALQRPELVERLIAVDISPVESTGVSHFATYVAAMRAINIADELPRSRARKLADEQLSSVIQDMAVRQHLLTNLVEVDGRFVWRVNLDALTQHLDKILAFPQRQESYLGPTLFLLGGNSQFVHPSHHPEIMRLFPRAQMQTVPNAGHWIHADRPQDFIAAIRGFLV
Chain of UniProt Q9NX63 (whole entry, looked up): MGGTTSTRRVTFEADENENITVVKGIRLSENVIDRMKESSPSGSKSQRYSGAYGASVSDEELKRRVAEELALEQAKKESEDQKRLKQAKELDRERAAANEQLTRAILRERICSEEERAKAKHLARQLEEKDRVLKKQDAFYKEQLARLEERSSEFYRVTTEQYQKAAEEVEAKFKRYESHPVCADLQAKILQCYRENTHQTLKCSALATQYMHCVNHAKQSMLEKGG

| SMILES | target or system | assay | test system | setting | how to read | endpoint | result |
| --- | --- | --- | --- | --- | --- | --- | --- |
| C[C@@H](O)[C@@H](CO)NC(=O)[C@@H](CCCNC(=N)N)NC(=O)[C@@H]1CCCN1C(=O)[C@@H]1CSSC[C@H](NC(=O)[C@H](Cc2ccccc2)NC(=O)CN2CCN(CC(=O)O)CCN(CC(=O)O)CCN(CC(=O)O)CC2)C(=O)N[C@@H](Cc2ccc(O)cc2)C(=O)N[C@@H](Cc2ccccc2)C(=O)N[C@@H](CCC(N)=O)C(=O)N[C@@H](CC(N)=O)C(=O)N1 [gallium-68 labelled] |  |  | healthy Wistar rat, kidneys | intravenous, 8 MBq, 30 min, individual animals |  | tissue uptake | 7.37 %ID/g |
| O=S(=O)(Nc1ccc2c(c1)B(O)OC2)c1ccc(Cl)cc1 | Genome polyprotein, NS2B-NS3 protease (dengue virus type 2, UniProt P29990) | enzyme activity, FRET | dengue virus serotype 2 | 50 µM, together with: substrate 50 µM |  | inhibition | ≤ 10% |
| C[C@@H]1N=C(c2ccccc2F)c2cc(Br)ccc2-n2cnc(C(=O)O)c21 | sigma receptor 1 | binding |  | 10 µM |  | inhibition | -2.9 ± 15.6% |
| CC(C)CC(=O)OC[C@H]1O[C@@](C#N)(c2ccc3c(N)ncnn23)[C@H](O)[C@@H]1O | Na+/K+-ATPase pig heart |  |  | 20 µM |  | inhibition | -4% |
| C[C@H]1CN(c2n[nH]c3nc(N[C@H]4CC[C@H](NS(=O)(=O)CCC(F)(F)F)CC4)ncc23)CCO1 | MICOS complex subunit MIC19 (Homo sapiens, UniProt Q9NX63) | Kinobeads competition, refers to: CHCHD3 |  | 0.8 µM, unit not given | relative to: vehicle | remaining binding | 1.11 |
| CCCCCC(=O)Nc1ccc2c(c1)B(O)OC2 | Genome polyprotein, NS2B-NS3 protease (West Nile virus, UniProt P06935) | enzyme activity, FRET |  | 50 µM, together with: substrate 50 µM |  | inhibition | ≤ 10% |
| O=C(Nc1cnccc1Cl)N1CCN(Cc2ccc3c(c2)OC(F)(F)O3)CC1 | MC3R (Homo sapiens, UniProt P41968) | radioligand binding |  | concentration not given |  | inhibition | 12% and 5% |
| Oc1ccc2c3c1O[C@H]1[C@@H](O)CC[C@@]4(O)[C@@H](C2)N(CC2CCC2)CC[C@]314 | Retinoic acid-induced protein 3 (GPRC5A, Homo sapiens, UniProt Q8NFJ5) | β-arrestin recruitment, TANGO luminescence, refers to: GPRC5A |  | concentration not given | relative to: basal luminescence | log2 fold change | 0.342 |
| Cc1ncc(C)n2nc(/C=C/c3nc(N4CCCC4)cc(N4CCOCC4)n3)nc12 | PDE6 non-selective | enzyme activity |  | 10 µM |  | inhibition | 57% |
| Nc1c2c(nc3c1C(c1ccc(Cl)c(Cl)c1)c1ccc(OCC(=O)c4ccc(Cl)cc4)cc1O3)CCCC2 (stereo not drawn) | APP (Homo sapiens, UniProt P05067) | Aβ42 self-aggregation, inhibitor, thioflavin T fluorescence |  | 100 µM |  | inhibition | 87% |
| O=C(Nc1ccc(S(=O)(=O)N2CCC(Cl)CC2)cc1)c1ccc([N+](=O)[O-])o1 | rat GABAA receptor benzodiazepine site | flunitrazepam radioligand binding | brain | 10 µM |  | inhibition | 21% |
| COC1=C(N)C(=O)c2nc(-c3nc(C(=O)O)c(C)c(-c4ccc(OC)c(OC)c4O)c3N)ccc2C1=O | SENP1 (Homo sapiens, UniProt Q9P0U3) | cleavage, ECFP-SUMO1-YFP, SDS-PAGE |  | 2 µM, together with: SENP1 15 nM |  | inhibition | inhibited |
| COc1ccc(N2C(=O)N(c3c(C)cccc3Cl)Cc3cnc(Nc4ccc(C5CCN(C)CC5)cc4OC)nc32)nc1 | PAK3 (Homo sapiens, UniProt O75914) | kinase activity |  | 0.5 µM |  | inhibition | 7% |
| CO[C@H]1C[C@@H]2CC[C@@H](C)[C@@](O)(O2)C(=O)C(=O)N2CCCC[C@H]2C(=O)O[C@H]([C@H](C)C[C@@H]2CC[C@@H](OC(=O)NCCOCCOCCOCCOCCOCCOCCOCCOCCC(=O)N3CCc4cc(Cn5nc(-c6ccc7oc(N)nc7c6)c6c(N)ncnc65)ccc4C3)[C@H](OC)C2)C[C@@H](O)[C@H](C)/C=C(\C)[C@@H](O)[C@@H](OC)C(=O)[C@H](C)C[C@H](C)/C=C/C=C/C=C/1C |  |  | patients with advanced solid tumours | intravenous, 8 mg weekly, any grade |  | decreased appetite incidence | 31.3% |
| O=[N+]([O-])c1ccc2c(c1)B(O)OC2 | Genome polyprotein, NS2B-NS3 protease (West Nile virus, UniProt P06935) | enzyme activity, FRET |  | 50 µM, together with: substrate 50 µM |  | inhibition | ≤ 10% |
| CC[C@H](C)[C@H](NC(=O)[C@H](Cc1ccccc1)NC(=O)[C@H](CCC(=O)O)NC(=O)[C@H](CCCNC(=N)N)NC(=O)[C@H](C)NC(=O)[C@H](C)NC(=O)[C@H](CCC(N)=O)NC(=O)[C@H](CCC(=O)O)NC(=O)[C@H](CCC(=O)O)NC(=O)[C@H](CC(C)C)NC(=O)[C@H](Cc1ccc(O)cc1)NC(=O)[C@H](CO)NC(=O)[C@H](CO)NC(=O)[C@@H](NC(=O)[C@H](CC(=O)O)NC(=O)[C@H](CO)NC(=O)[C@@H](NC(=O)[C@H](Cc1ccccc1)NC(=O)[C@@H](NC(=O)CNC(=O)[C@H](CCC(=O)O)NC(=O)[C@H](C)NC(=O)CCc1c[nH]cn1)[C@@H](C)O)[C@@H](C)O)C(C)C)C(=O)N[C@@H](C)C(=O)N[C@@H](Cc1c[nH]c2ccccc12)C(=O)N[C@@H](CC(C)C)C(=O)N[C@H](C(=O)N[C@@H](CCCNC(=N)N)C(=O)NCC(=O)N[C@@H](CCCNC(=N)N)C(=O)N[C@@H](CCCCNC(=O)COCCOCCNC(=O)COCCOCCNC(=O)CC[C@H](NC(=O)CCCCCCCCCCCCCCCCC(=O)O)C(=O)O)C(=O)NCC(=O)NCC(=O)N[C@@H](CO)C(=O)N[C@@H](CCCCNc1c(NCCCCCN(O)C(=O)CCC(=O)NCCCCCN(O)C(=O)CCC(=O)NCCCCCN(O)C(C)=O)c(=O)c1=O)C(=O)O)C(C)C [zirconium-89 labelled] |  |  | rat, duodenum | sc, 3 nmol/kg, 24 h, ex vivo |  | tissue uptake | 0.18 %ID/g |
| COc1cc(Nc2ncc(F)c(Nc3ccc4c(n3)NC(=O)C(C)(C)O4)n2)cc(OC)c1OC | HIPK4 (Homo sapiens, UniProt Q8NE63) | KINOMEscan |  | 10 µM |  | inhibition | 80% |
| CN(C(=O)n1cnc(-c2ccc[n+]([O-])c2)c1)C1CCCCC1 | CXCR4 (Homo sapiens, UniProt P61073) | radioligand binding, inhibitor |  | 10 µM |  | inhibition | 7% |
| CC[C@H](C)[C@@H]1NC(=O)[C@@H]2CCCN2C(=O)[C@H](CC(C)C)NC(=O)[C@H](CC(C)C)NC(=O)CNC(=O)[C@@H](NC(=O)[C@@H](NC(=O)[C@H](CC(=O)O)NC(=O)CNC(=O)[C@@H](NC(=O)[C@H](C)NC(=O)CNC(=O)[C@H](CCCCN)NC(=O)[C@H](CC(C)C)NC(=O)[C@H](CC(C)C)NC(=O)[C@H](CCCCN)NC(=O)CNC(=O)[C@@H](NC(=O)[C@@H](N)CC(C)C)C(C)C)C(C)C)C(C)C)CSSC[C@@H](C(=O)O)NC1=O |  | RNA-seq, refers to: Iglc1 | mouse, traumatic brain injury model, frontal cortex and hippocampus | dose not given | relative to: TBI alone | log2 fold change | -3.26 |
| O=C(c1ccc(Cl)cc1)N1CCN2C(=O)N(OC(=O)N3CCOc4ccccc43)C(=O)C2C1 (stereo not drawn) | ABHD11 (Homo sapiens, UniProt Q8NFV4) | enzyme activity, inhibitor, MS-based ABPP | SW-620 conditioned medium | 10 µM, 1 h, 37 °C | relative to: compound over DMSO, lower = stronger inhibition | median ratio | 1.05 |
| Cc1csc2c(=O)n(O)c(=O)[nH]c12 | Tripartite terminase subunit 3, C-terminal nuclease domain (Human betaherpesvirus 5, UniProt P16732) | endonuclease activity, ELISA |  | 20 µM, together with: dsDNA |  | inhibition | 87% |
| CNC1(c2ccccc2Cl)CCCCC1=O (racemic) | muscle nicotinic acetylcholine receptor | radioligand binding, antagonist, radioligand displacement |  | 30 µM |  | inhibition | -14% |
| O=C(Nc1ccc2c(c1)B(O)OC2)OCc1ccccc1 | Genome polyprotein, NS2B-NS3 protease (West Nile virus, UniProt P06935) | enzyme activity, FRET |  | 50 µM, together with: substrate 50 µM |  | inhibition | ≤ 10% |
| COc1cc2c(Oc3ccc4[nH]c(C)cc4c3F)ccnc2cc1OCC1(N)CC1 |  |  | paediatric recurrent refractory sarcoma | 12 mg |  | grade 3 Triglyceride elevation | 0% |
| O=C(Nc1cccnn1)N1CCC(=Cc2cccc(Oc3ccc(C(F)(F)F)cn3)c2)CC1 | Tmem97 (Rattus norvegicus, UniProt Q5U3Y7) | radioligand binding, inhibitor |  | 10 µM, rat, together with: [3H]ifenprodil |  | inhibition | 58% |
| Nc1ncnc2c1ncn2[C@@H]1O[C@H](C[C@@H](N)CC[C@H](N)C(=O)O)[C@@H](O)[C@H]1O | Genome polyprotein, NS5 methyltransferase domain (Zika virus, UniProt Q32ZE1) | NS5 enzyme activity, inhibitor |  | 6.25 µM |  | inhibition | 67.7% |
| FC(F)(F)c1cccc(Nc2nc(NCCOc3ccccc3)nc3[nH]cnc23)c1 | MAPK14 (Homo sapiens, UniProt Q16539) | Z′-LYTE kinase |  | 5 µM |  | inhibition | 2% and 5% |

Some of these lines once more:
| SMILES | target or system | assay | test system | setting | how to read | endpoint | result |
| --- | --- | --- | --- | --- | --- | --- | --- |
| Nc1ncnc2c1ncn2[C@@H]1O[C@H](C[C@@H](N)CC[C@H](N)C(=O)O)[C@@H](O)[C@H]1O | Genome polyprotein, NS5 methyltransferase domain (Zika virus, UniProt Q32ZE1) | NS5 enzyme activity, inhibitor |  | 6.25 µM |  | inhibition | 67.7% |
| COc1cc(Nc2ncc(F)c(Nc3ccc4c(n3)NC(=O)C(C)(C)O4)n2)cc(OC)c1OC | HIPK4 (Homo sapiens, UniProt Q8NE63) | KINOMEscan |  | 10 µM |  | inhibition | 80% |
